Results gathered from unrelated publications.
Parts stem from different laboratories: compare values within a part only.

Sample 1
Target: Ras GTPase-activating protein-binding protein 1, C-terminal RGG region (G3BP1, Homo sapiens, UniProt Q13283)
Chain of UniProt Q13283 (whole entry, looked up): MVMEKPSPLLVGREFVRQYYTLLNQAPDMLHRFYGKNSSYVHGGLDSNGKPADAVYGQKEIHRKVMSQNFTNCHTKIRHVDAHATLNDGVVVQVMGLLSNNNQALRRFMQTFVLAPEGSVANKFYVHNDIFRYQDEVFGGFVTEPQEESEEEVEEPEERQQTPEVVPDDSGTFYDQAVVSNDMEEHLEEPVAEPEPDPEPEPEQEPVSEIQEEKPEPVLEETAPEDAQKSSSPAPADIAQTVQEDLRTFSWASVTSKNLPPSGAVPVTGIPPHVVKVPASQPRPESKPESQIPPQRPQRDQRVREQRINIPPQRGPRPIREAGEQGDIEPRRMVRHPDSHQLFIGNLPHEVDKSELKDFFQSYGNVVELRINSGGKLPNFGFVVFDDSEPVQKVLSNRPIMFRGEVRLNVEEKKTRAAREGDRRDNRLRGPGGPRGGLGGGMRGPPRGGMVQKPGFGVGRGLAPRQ
Technique: RNA Bind-n-Seq
Form: RNA
Medium: in vitro
Tested at: 1 µM
Notes: whole 134-nt RNA, ends assumed
Together with: 150 mM KCl
Reference: input library
Direction: higher = stronger binding
| Strand | log2 enrichment |
| --- | --- |
| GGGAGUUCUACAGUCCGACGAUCCACAGACAACACGCACCCACACAGACACAGAGGUAAGGGGUUGGGAUGGGGACAGGGUGCACAGCAGGGCGGGGUAGGACCCCAGCCCCUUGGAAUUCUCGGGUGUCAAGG | 0.00564 |
| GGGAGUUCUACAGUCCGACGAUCAAGUCCUGUGCUACACAUCGUAUGUACCGAAUCGGGUUUUUUUGGGUGGGAAAGGGAAAGUAUUAUGUUACGCCGUUCGGAUCUGCACUUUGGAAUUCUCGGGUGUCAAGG | 0.713 |
| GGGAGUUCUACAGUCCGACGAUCCAAGUCCUGUGCUACACAUCGUAUGUACCGAAUCGGAAAAAAAGGUUUUUGGAGGAAAGUAUUAUGUUACGCCGUUCGGAUCUGCACUUCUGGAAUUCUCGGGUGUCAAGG | -1.95 |
| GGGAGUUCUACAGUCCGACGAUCUUAAGGAAGGACACUGAGUCAUGCACAAGUCCUUGCCUUCUUGGUGCCCCUCGGAAAGCACAAGACCCCUCCUCUGCUGGGUGUGAUCAAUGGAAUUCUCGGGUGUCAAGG | -0.662 |
| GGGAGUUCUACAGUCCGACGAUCUGGCCCUGGUGGCAUGCGGGGAGGACGAGGUGGCCUCAUGGAUCGUGGUGGUCCCGGUGGAAUGUUCAGAGGUGGCCGUGGUGGAGACAGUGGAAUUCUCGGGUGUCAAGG | 2.47 |
| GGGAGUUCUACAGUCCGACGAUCCAAGUCCUGUGCUACACAUCGUAUGUACCGAAUCGGGAAGGGGAAGGGGAAGGGGAAAGUAUUAUGUUACGCCGUUCGGAUCUGCACUUCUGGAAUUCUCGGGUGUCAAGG | 2.94 |
| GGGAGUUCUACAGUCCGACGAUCUCCUGUGCUACACAUCGUAUGUACCGAAUCAAAUUUUUAAAUUUUUUUAAAUUUUUAAAAAAGUAUUAUGUUACGCCGUUCGGAUCUGCAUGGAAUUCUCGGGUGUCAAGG | -1.97 |
| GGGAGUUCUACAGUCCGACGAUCCUCAAGUCCUGUGCUACACAUCGUAUGUACCGAAUCGGGGUUGGUUGGGUUGGAAAGUAUUAUGUUACGCCGUUCGGAUCUGCACUUCCAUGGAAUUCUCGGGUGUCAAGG | -0.696 |
| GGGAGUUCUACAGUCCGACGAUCAAGUCCUGUGCUACACAUCGUAUGUACCGAAUCGGUGGUUUUUUUGGUUUUUUUGGAAAGUAUUAUGUUACGCCGUUCGGAUCUGCACUUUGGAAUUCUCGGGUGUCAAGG | -1.89 |
| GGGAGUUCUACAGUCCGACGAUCUGGCCCUGGUGGCAUGCCGGGAGGAAGAGGUGGCCUCAUGGAUCGUGGUGGUCCCGGUGGAAUGUUCAGAGGUGGCCGUGGUGGAGACAGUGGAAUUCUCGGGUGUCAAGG | 1.87 |

Sample 2
Target: Interferon regulatory factor 7, full length, phosphomimetic (IRF7, Homo sapiens, UniProt Q92985, residues 1-503, S471D/S472D/S475D/S476D/S477D/S483D/S484D/S487D)
Chain of UniProt Q92985 (whole entry, unmodified, looked up): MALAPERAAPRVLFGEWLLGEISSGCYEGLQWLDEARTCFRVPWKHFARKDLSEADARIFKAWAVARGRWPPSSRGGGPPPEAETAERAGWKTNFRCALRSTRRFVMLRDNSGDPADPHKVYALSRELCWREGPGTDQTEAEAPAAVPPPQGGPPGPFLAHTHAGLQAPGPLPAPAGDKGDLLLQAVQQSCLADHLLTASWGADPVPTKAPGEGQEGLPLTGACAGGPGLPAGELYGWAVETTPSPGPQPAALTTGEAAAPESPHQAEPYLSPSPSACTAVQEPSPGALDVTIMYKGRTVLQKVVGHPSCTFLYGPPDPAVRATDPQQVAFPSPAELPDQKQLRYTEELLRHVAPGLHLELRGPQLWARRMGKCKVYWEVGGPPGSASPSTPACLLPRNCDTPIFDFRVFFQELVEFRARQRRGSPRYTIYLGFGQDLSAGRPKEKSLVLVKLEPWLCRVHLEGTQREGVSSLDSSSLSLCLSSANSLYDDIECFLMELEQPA
Technique: protein-binding microarray
Form: double-stranded DNA, one strand shown
Medium: in vitro
Tested at: 2200 nM top
Notes: 60-bp whole probe
Together with: salmon DNA 0.4 mg/ml
Reference: random background probes
Direction: higher = stronger binding
Constant ends, left off below: GCCTAGCAC … GTCTTGATTCGCTTGACGCTGCTG
| Strand | fitted relative affinity |
| --- | --- |
| GACGGAATCCTTCTCCTGACGTGCTAG | 0.678 z-score |
| TTAGGTGTCGGTATCGGTTAGTGCTAG | 0.428 z-score |
| GACGGTATCGGTTTCGGGACGTGCTAG | 3.92 z-score |
| TTAGGACTGAGTCTCGATTAGTGCTAG | -0.357 z-score |
| GACTGTTTCGGTTCCGGGACGTGCTAG | 8.59 z-score |
| CACACTTTCCCCTTCCTAGTGTGCTAG | 5.39 z-score |
| TCAGTTTTGTGTCTGGGACTGTGCTAG | 2.01 z-score |
| GAAGGTTTCGGGTATCGGGACGTGCTA | 5.56 z-score |
| TCATGTATGGGCATTTTTACTGTGCTA | -0.0627 z-score |
| AACTCTCTAATTTTGAGACTGTGCTAG | -0.0285 z-score |
| TTAGGTTTCCTTATCCTTGAGTGCTAG | 1.78 z-score |
| GACGGTATCGGACTAGGGACGTGCTAG | -0.225 z-score |
| GACGGACTGGAGTTTCGGGACGTGCTA | 1.27 z-score |
| TCAAATTTCCCTCTGCTACTGTGCTAG | 1.56 z-score |
| TCATTATTCTAGCCTCCAACTGTGCTA | 1.59 z-score |
| TCATCTCTAATTTTGAGACTGTGCTAG | 0.594 z-score |

Sample 3
Target: RING finger protein unkempt homolog, zinc fingers 1-6, GST-SBP tag (UNK, Homo sapiens, UniProt Q9C0B0, residues 30-357)
Chain of UniProt Q9C0B0 (30-357, looked up): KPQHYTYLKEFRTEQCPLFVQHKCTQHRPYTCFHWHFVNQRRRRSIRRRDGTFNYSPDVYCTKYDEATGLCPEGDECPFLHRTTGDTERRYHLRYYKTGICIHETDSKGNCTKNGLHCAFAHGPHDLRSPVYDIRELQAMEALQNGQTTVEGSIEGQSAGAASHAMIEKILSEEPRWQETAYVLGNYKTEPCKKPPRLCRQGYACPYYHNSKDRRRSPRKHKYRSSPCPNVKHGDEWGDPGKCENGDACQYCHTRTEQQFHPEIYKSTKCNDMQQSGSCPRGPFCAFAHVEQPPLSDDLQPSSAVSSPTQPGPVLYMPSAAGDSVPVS
Technique: RNA Bind-n-Seq
Form: RNA
Medium: in vitro
Tested at: not given
Notes: RNA with constant flanks, human-mouse chimeric sites, ends assumed
Reference: input RNA pool
Direction: higher = stronger binding
| Strand | bound/input enrichment [ratio] |
| --- | --- |
| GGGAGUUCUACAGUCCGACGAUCCACACCCUCUUCUGUGGGACCCUCAUCUUGCAGGCCCGGGCCUAUGUGGGACCGCACGUCCUGGCAGUGGUGACCCGCACAGGGUUCUGCACGGCAAAAGGGGGCCUGGUGAGCUCCAUCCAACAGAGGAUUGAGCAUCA | 0.102 |
| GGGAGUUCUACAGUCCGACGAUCCUGAGGAUACCACUGAAAGAGACAUUAAAGAAUCAUUUGAGGGCUCUGUUCGUGCAAGAAUAGUCACUGAUCGGGAAACUGGUUCUUCCAAAGGGUUUGGUUUUGUAAGACUUCAACGUGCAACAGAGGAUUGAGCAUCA | 0.361 |
| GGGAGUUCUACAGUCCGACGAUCUUACCCGAAAAUGAAGAUGAGCUGGAGAGCACCAACAGGCGCUACACCAAGAGGGACUGCAGCACUUUUCUCAGAACUAGUGAGACGGGCAUCGUGGACCAGGUCAUGGUCACUCUCAACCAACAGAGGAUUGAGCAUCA | 0.16 |
| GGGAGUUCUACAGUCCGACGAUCGUCAACAGCUGCCUCAAUCCCAUUCUCUACGCCUUCCUGGAUGAGAACUUCAAGGCCUGCUUCCGCAAGUUCUGCUGUGCAUCUGCCCUGCGCCGGGAGAUGCAGGUGUCUGACCGCGUGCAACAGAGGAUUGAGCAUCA | 0.376 |
| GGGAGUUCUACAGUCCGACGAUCCUGGGCUUCUCUUUUCUUUCUUUCCUUUAGGAAAAGCCUAAAGAUUAGUAAGAAAAGAAAACAGAAGCCAUGUUUCGAAGACCUGUGUUACAGGUAUUUCGUCAGUUUGUAAGACAUGAGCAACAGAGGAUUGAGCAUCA | 0.254 |
| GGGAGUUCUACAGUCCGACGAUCUCUGGUCAUACUCGUGCGUAUGGUGUUUGCUUUGUGGACACUUCACUGGGCAAGUUUUUCAUCGGCCAGUUUUCAGAUGACCGCCACUGUUCCAGAUUUAGGACGCUAGUGGCUCACUAUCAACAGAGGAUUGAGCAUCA | 0.214 |
| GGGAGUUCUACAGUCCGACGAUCUCCCAAAUCCAGCAGCUAGAAGGAGCCUUGAGACAAACACUCCACACGCAGGGAGGGCGAUAACAUUGUACAUUGGUUUACAUUUUUUCCCCCUGUGGAUUUUUCUAGAGGUCAUAGUGCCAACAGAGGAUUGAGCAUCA | 0.397 |
| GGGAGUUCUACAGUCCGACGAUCUUAAUCCCCUUCGUUGCUCCCCCACUUCUCAUGGUAAUAACAAAGUCUUAUAUCCCCAUAUUAGCUUUCACUCAGAUGGCUUAUGGAGCCGGUUUCCUAGCUUUCUUGGGAGGGAUCAGACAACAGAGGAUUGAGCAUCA | 0.461 |
| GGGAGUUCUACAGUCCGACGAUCAACGUGGAACUAAGUUCCUUGGCCCGGCUUCCCAGCUUGAAUAAACUCCGGAAGUUGGAGCUUAGUGACAAUAUAAUUUCUGGAGGCUUGGAAGUCCUGGCAGAGAAAUGUCCAAAUCUUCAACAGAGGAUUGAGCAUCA | 0.149 |
| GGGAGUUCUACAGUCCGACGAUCACACAAUAUGAGACCAACAGCAUGGACUUCAAAGUUGGGGCAGAUGGGACAGUCUUCGCCACCCGGGAGCUGCAGGUCCCCUCAGAGCAGGUGGCGUUUACCGUCACUGCAUGGGACAGCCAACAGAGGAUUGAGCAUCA | 0.142 |
| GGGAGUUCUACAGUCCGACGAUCCCACCAGGAUCCCAGAAACAUGACCCUUGCUGCCUACAAAGAGAAGAUGAAGGAGCUCCCGCUGGUGUCCUUGUUCUGCUCCUGCUUCCUGGCCGAUCCCCUGAAUAAAUCAUCCUACAACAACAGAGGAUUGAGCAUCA | 0.309 |

Sample 4
Target: Histone acetyltransferase KAT6A, both winged helices, GST fusion (KAT6A, Homo sapiens, UniProt Q92794, residues 1-181)
Technique: protein binding microarray
Form: double-stranded DNA, one strand shown
Medium: in vitro
Tested at: not given
Notes: 8-mer, flanks averaged, mean of 2 arrays, mostly near background
Reference: not given
Direction: higher = stronger binding
Construct (chain): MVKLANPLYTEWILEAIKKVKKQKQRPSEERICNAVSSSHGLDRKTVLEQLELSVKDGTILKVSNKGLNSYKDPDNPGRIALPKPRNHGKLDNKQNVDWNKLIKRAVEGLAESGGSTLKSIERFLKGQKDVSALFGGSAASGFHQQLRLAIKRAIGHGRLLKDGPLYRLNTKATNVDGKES
| Strand | E-score |
| --- | --- |
| ATGACTAA | -0.138 |
| GTATATCA | 0.00363 |
| CGATCACC | 0.0721 |
| ACTACAAC | -0.0523 |
| CAAACTGG | -0.237 |
| CCTTACCG | 0.148 |
| CTTCGAAC | -0.055 |
| AGTGTAAC | -0.128 |
| CAGCTTCA | -0.146 |
| ATGCGGCC | 0.201 |
| CTATGATC | 0.0212 |
| GGGCGATA | 0.12 |
| ATCGGCGG | 0.242 |
| CGGCCGAG | 0.319 |
| GCACTCCC | -0.0263 |
| GTCATAGA | 0.015 |
| AGGGAGAG | -0.214 |
| CACCGACC | 0.13 |
| GCACAGAC | 0.0321 |
| CGTTTAGA | 0.0935 |

Repeated from above (sample 4):
| Strand | E-score |
| --- | --- |
| CAGCTTCA | -0.146 |
| ATGCGGCC | 0.201 |
| CTATGATC | 0.0212 |
| GGGCGATA | 0.12 |
| ATCGGCGG | 0.242 |
| CGGCCGAG | 0.319 |
